Measured values gathered from unrelated publications.
Each line is one published result; not all experiments were run side by side. “And” joins repeats or separate records; there may be more than shown.

CCCCCCCCCCCCCCCC(=O)OCC(CSC[C@H](N)C(=O)N[C@@H](CO)C(=O)N[C@@H](CCCCN)C(=O)N[C@@H](CCCCN)C(=O)N[C@@H](CCCCN)C(=O)N[C@@H](CCCCN)C(=O)O)OC(=O)CCCCCCCCCCCCCCC (stereo partly drawn)
viability (HFF-1; 10 µg/mL, 48 h): 100%

Cc1ccc(N2CC(N(C)C)C2)cc1C(=O)N[C@H](C)c1cc(-c2cnn(C)c2)nc2ccccc12
viability (Vero E6; 500 µM): 0.628% and -0.157% and 2.04%

CNC(=O)C[C@H](Cc1ccc(F)cc1)NC(=O)[C@@H](Cc1ccc(Cl)cc1Cl)NC(=O)[C@H](N)Cc1ccccc1[N+](=O)[O-]
viability (Huh-7-ACE2; CellTiter-Glo; 1.562 µM, 48 h, unit not given; relative to: DMSO): 0.954 and 0.966 and 0.925

CCn1ccc(-c2cc([C@@H](C)NC(=O)c3cc(OCCN(C)C)ccc3C)c3ccccc3n2)n1
viability (Vero E6; 7.812 µM): 102% and 101% and 108%

O=c1n(CCNCCOS(=O)(=O)c2ccccc2)c(=O)n(S(=O)(=O)c2ccccc2)c(=O)n1S(=O)(=O)c1ccccc1
viability (HUVEC; cell growth or viability, MTT; 50 µg/mL, 24 h): 62.7%

CNC(=O)CC1CN(C(=O)c2ccc(C(F)(F)F)cn2)CCN1C(=O)c1cccnn1 (stereo not drawn)
viability (Huh-7-ACE2; CellTiter-Glo; 0.00153 µM, 48 h, unit not given; relative to: DMSO): 1.21 and 1.11 and 0.98

CCn1ccc(-c2cc([C@@H](C)NC(=O)c3cc(OC[C@H]4CCCN4C)ccc3C)c3ccccc3n2)n1
viability (Vero E6; 7.812 µM): 97% and 90.5% and 101%

CCCCCCCCCCCCCCCC(=O)OCC(CSC[C@H](N)C(=O)NCC(=O)N[C@@H](CC(=O)O)C(=O)N1CCC[C@H]1C(=O)N[C@@H](CCCCN)C(=O)N[C@@H](Cc1c[nH]cn1)C(=O)N1CCC[C@H]1C(=O)N[C@@H](CCCCN)C(=O)N[C@@H](CO)C(=O)N[C@@H](Cc1ccccc1)C(=O)O)OC(=O)CCCCCCCCCCCCCCC (stereo partly drawn)
viability (HFF-1; 1 µg/mL, 48 h): 89.9%

NC(=S)N/N=C/c1ccc(OCc2ccccc2)cc1
viability (IMR-32; MTT; 300 µg/mL, 24 h; relative to: untreated control): 42.1%

Cc1ccc(N(C)C2(C)CN(C)C2)cc1C(=O)N[C@H](C)c1cc(-c2cnn(C)c2)nc2ccccc12
viability (Vero E6; 125 µM): 52.6% and 64.1% and 50.3%

CCCCCCCCCCCCCCCC(=O)N[C@@H](CSCC(COC(=O)CCCCCCCCCCCCCCC)OC(=O)CCCCCCCCCCCCCCC)C(=O)N[C@@H](CO)C(=O)N[C@@H](CCCCN)C(=O)N[C@@H](CCCCN)C(=O)N[C@@H](CCCCN)C(=O)N[C@@H](CCCCN)C(=O)O (stereo partly drawn)
viability (HFF-1; 1 µg/mL, 48 h): 96.9%

Cc1ccc(N2CC3CCC(C2)N3C)cc1C(=O)N[C@H](C)c1cc(-c2cnn(C)c2)nc2ccccc12
viability (Vero E6; 125 µM): 1.72% and 0.766% and 1.53%

CNC(=O)C[C@H](Cc1ccccc1)NC(=O)[C@@H](Cc1ccc(Cl)cc1Cl)NC(=O)[C@H](N)Cc1ccccc1C#N
viability (Huh-7-ACE2; CellTiter-Glo; 0.00305 µM, 48 h, unit not given; relative to: DMSO): 1 and 0.979 and 1.05

NC(=S)N/N=C/c1ccc(OCc2cccc(F)c2)cc1
viability (IMR-32; MTT; 500 µg/mL, 24 h; relative to: untreated control): 19.1%

CNC(=O)C[C@H](Cc1ccncc1)NC(=O)[C@@H](Cc1cccc(Br)c1)NC(=O)[C@@H](N)Cc1cccc(F)c1
viability (Huh-7-ACE2; CellTiter-Glo; 6.25 µM, 48 h, unit not given; relative to: DMSO): 0.871 and 1.06

Cc1ccc(O[C@H]2CCN(C)C2)cc1C(=O)N[C@H](C)c1cc(-c2cnn(C)c2)nc2ccccc12
viability (Vero E6; 15.62 µM): 90.8% and 93.9% and 86.8%

CCOc1ccc(CN2CC[C@H]2C(=O)NC)cc1-c1cccc(C(=O)NC[C@@H]2COC(C)(C)O2)c1
viability (Huh-7-ACE2; CellTiter-Glo; 0.0977 µM, 48 h, unit not given; relative to: DMSO): 1 and 1.12 and 1.06

NC(=O)N/N=C/c1ccc(OCc2cccc(F)c2)cc1
viability (IMR-32; MTT; 300 µg/mL, 24 h; relative to: untreated control): 49.7%

For quick reference, copied from above:
CCCCCCCCCCCCCCCC(=O)N[C@@H](CSCC(COC(=O)CCCCCCCCCCCCCCC)OC(=O)CCCCCCCCCCCCCCC)C(=O)N[C@@H](CO)C(=O)N[C@@H](CCCCN)C(=O)N[C@@H](CCCCN)C(=O)N[C@@H](CCCCN)C(=O)N[C@@H](CCCCN)C(=O)O (stereo partly drawn)
viability (HFF-1; 1 µg/mL, 48 h): 96.9%

CCn1ccc(-c2cc([C@@H](C)NC(=O)c3cc(OCCN(C)C)ccc3C)c3ccccc3n2)n1
viability (Vero E6; 7.812 µM): 102% and 101% and 108%

CCOc1ccc(CN2CC[C@H]2C(=O)NC)cc1-c1cccc(C(=O)NC[C@@H]2COC(C)(C)O2)c1
viability (Huh-7-ACE2; CellTiter-Glo; 0.0977 µM, 48 h, unit not given; relative to: DMSO): 1 and 1.12 and 1.06
